Measurements collected from several papers.
Parts stem from different laboratories: compare values within a part only.
Chain of UniProt Q9C0B0 (30-357, looked up): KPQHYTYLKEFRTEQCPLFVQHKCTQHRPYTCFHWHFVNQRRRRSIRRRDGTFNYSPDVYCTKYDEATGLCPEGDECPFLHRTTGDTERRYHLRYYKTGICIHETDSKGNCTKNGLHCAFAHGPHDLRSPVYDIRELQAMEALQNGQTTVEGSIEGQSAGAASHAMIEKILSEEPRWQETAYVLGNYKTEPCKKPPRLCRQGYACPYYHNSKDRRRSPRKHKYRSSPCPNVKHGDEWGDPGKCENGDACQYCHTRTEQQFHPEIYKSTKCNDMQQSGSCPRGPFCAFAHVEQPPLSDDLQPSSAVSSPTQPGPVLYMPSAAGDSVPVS

Block 1
Target: Fragile X messenger ribonucleoprotein 1, C-terminal low-complexity region (Fmr1, Mus musculus, UniProt P35922)
Technique: RNA Bind-n-Seq
Form: RNA
Matrix: in vitro
Concentration: 200 nM
Setting: whole 134-nt RNA, ends assumed
Together with: 150 mM KCl
Reference: input library
Direction: higher = stronger binding
All sequences stand within: GGGAGUUCUACAGUCCGACGAUC … UGGAAUUCUCGGGUGUCAAGG
| Strand | log2 enrichment |
| --- | --- |
| AAGUCCUGUGCUACACAUCGUAUGUACCGAAUCGGGAAAGGGUUUUUUUGGGAGGGAAAGUAUUAUGUUACGCCGUUCGGAUCUGCACUU | 0.738 |
| UCAAGUCCUGUGCUACACAUCGUAUGUACCGAAUCGGGAAGGGAAGGGGAAGGGAAAGUAUUAUGUUACGCCGUUCGGAUCUGCACUUCC | 0.755 |
| UAACUUUAGAGGAGCAUCUGAUGGAUAUGGCAGUGGACGUGGAUUUGGGGAUGGCUAUAAUGGGUAUGGAGGAGGACCUGGAGGUGGCAA | 0.522 |
| UGGCCCUGGUGGCAUGCGGAGAGGAAGAGGUGGCCUCAUGGAUCGUGGUGGUCCCGGUGGAAUGUUCAGAGGUGGCCGUGGUGGAGACAG | 0.0701 |
| GGGACGUCAGCAUCGGCAUCAAGUGUGCCCCUGGAGUGGUAGGCCCCGCCGAAGCUGACAUCGACUUCGACAUCAUCCGCAAUGACAAUG | -2 |
| CAAGUCCUGUGCUACACAUCGUAUGUACCGAAUCGGGAGGGUUUUUGGGAAAGGGAAAGUAUUAUGUUACGCCGUUCGGAUCUGCACUUC | 0.658 |
| GCAGGAAGUAAAAACAAAUGUAAAUGCUUCGGAUAGUGGCAGGGGUGGGGGUUGCUAAGGAAAGGGUGGGAUGGGAGUGGGUAAAGAGUU | 0.263 |
| CCUGUGCUACACAUCGUAUGUACCGAAUCGGGCCCCCCCGGCCCCCCCGGCCCCCCCGGGAAAGUAUUAUGUUACGCCGUUCGGAUCUGC | 0.0885 |
| AAGUCCUGUGCUACACAUCGUAUGUACCGAAUCGGGAGGGUUUUUUUGGGUUUGGGAAAGUAUUAUGUUACGCCGUUCGGAUCUGCACUU | 0.598 |
| GCAGGAAGUAAAAACAAAUGGAAAUGCUUCGGAUAGUGGCAGGGGUGGGGGUUGCUAAGGAAAGGGUGGGAUGGGAGUGGGUAAUGAGUU | 0.293 |
| UGGGAGGUGGAUUUUGUUUAUUUUUUUAGCUCAUUUCCAGGGGUGGGAAUCUUUUUUUAAUAUGUGUCAUGAAUAAAGUUGUUUUUGAAA | 0.379 |
| UCCUGUGCUACACAUCGUAUGUACCGAAUCGGAAAAAAGGAAAAAAGGGAAAAAAGGGGAAAGUAUUAUGUUACGCCGUUCGGAUCUGCA | -0.583 |
| CUGUGCUACACAUCGUAUGUACCGAAUCGGGAAAAAAAGGGAAAAAAAGGAAAAAAAGGGGAAAGUAUUAUGUUACGCCGUUCGGAUCUG | -0.964 |
| UCCUCAAGUCCUGUGCUACACAUCGUAUGUACCGAAUCGGGCGGGCGGGCGGAAAGUAUUAUGUUACGCCGUUCGGAUCUGCACUUCCAG | 1.57 |

Block 2
Target: Histone acetyltransferase KAT6A, winged helix 2, GST fusion (KAT6A, Homo sapiens, UniProt Q92794, residues 85-181)
Technique: protein binding microarray
Form: double-stranded DNA, one strand shown
Matrix: in vitro
Concentration: not given
Setting: 8-mer, flanks averaged, mean of 2 arrays, mostly near background
Reference: not given
Direction: higher = stronger binding
Residues (chain): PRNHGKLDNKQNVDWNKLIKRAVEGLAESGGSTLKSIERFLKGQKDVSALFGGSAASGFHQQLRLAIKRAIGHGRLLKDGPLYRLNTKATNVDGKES
| Strand | E-score |
| --- | --- |
| CAGAACTA | -0.0888 |
| AATTTAAC | 0.123 |
| GGAGTGAA | -0.0267 |
| CCATGATC | -0.2 |
| ACATACTA | -0.0817 |
| AATGCGTG | -0.0349 |
| AACAACTA | -0.188 |
| AGCCCCCT | 0.014 |
| AGCAACGC | 0.193 |
| CACAGCCA | -0.0185 |
| AAGAAACA | 0.0897 |
| AGGTCAAT | -0.066 |
| AAAGTGTT | 0.0235 |
| GCATATTA | -0.039 |
| CTGGGTTC | 0.179 |
| CTTACACC | -0.15 |
| CACACAAG | 0.0358 |
| AAAGTAGT | -0.174 |
| AAGCCGTA | -0.011 |
| AGACGTAA | -0.0572 |
| CAGCCCCA | 0.018 |
| AAGTGGGC | 0.187 |
| TAAACCAA | 0.14 |
| ACTCGAAC | -0.163 |

Block 3
Target: Interferon regulatory factor 3, full length, phosphomimetic (IRF3, Homo sapiens, UniProt Q14653, residues 1-427, S386D/S396D/S398D/S402D/T404D/S405D)
Chain of UniProt Q14653 (whole entry, unmodified, looked up): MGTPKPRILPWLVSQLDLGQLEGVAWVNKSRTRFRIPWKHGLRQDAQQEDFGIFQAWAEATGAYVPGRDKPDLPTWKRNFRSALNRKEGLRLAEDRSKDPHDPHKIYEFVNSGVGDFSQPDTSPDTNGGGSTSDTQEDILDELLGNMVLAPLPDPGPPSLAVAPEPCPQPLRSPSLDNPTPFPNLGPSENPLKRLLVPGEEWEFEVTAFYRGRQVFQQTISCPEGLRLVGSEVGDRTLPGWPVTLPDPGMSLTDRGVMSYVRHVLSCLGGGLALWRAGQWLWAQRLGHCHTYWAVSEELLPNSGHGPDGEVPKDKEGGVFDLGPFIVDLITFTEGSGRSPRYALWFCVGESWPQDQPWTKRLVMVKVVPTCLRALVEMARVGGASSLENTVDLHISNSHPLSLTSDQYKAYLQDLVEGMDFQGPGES
Technique: protein-binding microarray
Form: double-stranded DNA, one strand shown
Matrix: in vitro
Concentration: 2540 nM top
Setting: 60-bp whole probe
Together with: salmon DNA 0.4 mg/ml
Reference: random background probes
Direction: higher = stronger binding
All sequences stand within: GCCTAGCAC … GTCTTGATTCGCTTGACGCTGCTG
| Strand | fitted relative affinity [z-score] |
| --- | --- |
| TTAGAACTGAGTTTCGAGTAGTGCTAG | 0.721 |
| TTAGAGATCAGTCTCGATTAGTGCTAG | 0.825 |
| TTAGGTTTCCATATCCTTTAGTGCTAG | 7.11 |
| TTAGGACTGTTTTTCCTTTAGTGCTAG | 1.51 |
| TCAAGTATGTTCCTTATTACTGTGCTA | 1.66 |
| TTAGGTACCCTTCTCCTTTAGTGCTAG | 5.79 |
| GACGGTCTCGCACTGGGGACGTGCTAG | -0.0903 |
| ACTCTTCTTTTTTTTCTTTAGTGCTAG | 2.14 |
| GACGGTTTAGACTTTCGGGACGTGCTA | 0.903 |
| CAGGGTTTCAGATGCGTGAGGTGCTAG | 0.756 |
| GACGATATCGGGTTTCGATACGTGCTA | 2.25 |
| GACGGTATCGACTATCGGGCCGTGCTA | 0.3 |
| GACGTTTTCGGTCTCGGGACGTGCTAG | 5.01 |
| GACGATTTCTGGTTTCGAGACGTGCTA | 2.36 |
| TTAGGTCTCGGTCTCGTTTAGTGCTAG | 1.25 |
| TCGAGTCTGCAACATGGGACTGTGCTA | -0.328 |
| GATGAACTGAGTATCGAGACGTGCTAG | -0.341 |
| TTAGGTCCCGGACTGGGTTAGTGCTAG | -0.431 |
| GACGGTTCCCTTTTCCTAACGTGCTAG | 6.34 |
| TTAGGACTGGACTTTCGGGTAGTGCTA | -0.147 |
| TTAGGTCGCCTTATCCTTTAGTGCTAG | 1.07 |
| TCAGTTTTCATTTTATGACTGTGCTAG | 5.09 |
| TTAGGTCTTCTTATCCTTTAGTGCTAG | 0.51 |
| GACGGTATCCTTTACCTGACGTGCTAG | 3.97 |

Block 4
Target: RNA binding protein fox-1 homolog 2, RRM domain, GST-SBP tag (RBFOX2, Homo sapiens, UniProt O43251-10, residues 100-194)
Technique: RNA Bind-n-Seq
Form: RNA
Matrix: in vitro
Concentration: 365 nM
Setting: natural RNA segment, single round, ends assumed
Reference: no-protein control
Direction: higher = stronger binding
All sequences stand within: GGGAGUUCUACAGUCCGACGAUC … UGGAAUUCUCGGGUGCCAA
Construct (chain): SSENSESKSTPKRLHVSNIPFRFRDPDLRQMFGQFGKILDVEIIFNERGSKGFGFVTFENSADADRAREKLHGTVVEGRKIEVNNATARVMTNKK
| Strand | RBNS enrichment (R) |
| --- | --- |
| GAUCCCCCUAGUUCAUCUUAAAUUUGUCCGUGGCCCUGGCAAGAUAGCGUACACAAGAUUCCAUGACUCCAGAGCAUCUUGAAGAAACAUACAUAUUUUGAAAGAGGGGA | 0.758 |
| UUUCCCAACAGAAAAGAACAGCCAUUAGAAGAAGGCUCCCAUUUUCUGAUGUUCCGCCCCACUGUGAAGAGUGUGCUCGUUUUAAAUUCAUGUUGAUUCUUGUAAGCACU | 0.471 |
| CCUCAGGAUAGGGAAGAGCAGGGGGAUGCAGGAAUAGCAGGGAUAGCUUGCUCCCAGCCCCCUCCCCAAUUUGGUUCCGUUGACAUAGGAAUUUUACGAUUCCCAAACCA | 0.987 |
| AACAAAUACUGAAAAUCCCAAGGAACCUGGGAGAAUCUGAAAAUGAACUCCAGUCUUCAGCUCGAAGUUGCCUCUAGGGUUCCUCCUGGUCACCCCCGGGCCCAGCCUGG | 0.337 |
| CCCAGGGCUUUUGCUGACUCUGGGAAAGAGUCUGGAGACCACAUUUGGUUCUCGAACCAUCUACCUGCUUUUCCUCUCUCUCCCAAGGCCUGACAAUGGUACCUAUUAGG | 0.269 |
| CCCAAGACAGUCUUUCCUAACUGCCUCCCUACUUGGAGUAGUCACAUACUCAAGUGCACACCACAGCCCGAGGUGGAGACCUGGGCCACACCCUUCCCCUCCUGACAUCU | 0.395 |
| ACUCAUCAGAGUGCGGAUUGCCAAGACCCUUCUCCAGAGAUUAUGGGGUUGGGGGUGGAGGUCUAGAGGUGAGCUCAGAAACCUACUGUUAACCAACACCCCCAAGUGAC | 0.238 |
| UAGAAAGUUAACCCUAUUAAUUUCAGUAUCAAACAUUGUUACAGUCAAAGACAAGGAAGACCAAACCACACACUGUAAAAGUCCACUGCUCUGUAGUUUAUGCCAAGACC | 0.362 |
| GCUGUGCUGGGGAGGCAGUGUAGAGAGGAGCUGUGGGGCAGCCAGCCUUGGCAGGUGCAGUUUGCAGUUCACUGCAGCUCCCUCCCCCUUUUGUUUCCUCAAUUUAAGCA | 1.54 |
| GUAAGCUGUAGCUUUGAGUUGCAAAGAAGUCACAGGAAAGAACCAUUUGGGUUUCUGAAGUACAAGUAUUGAGCAACAUGAAGGGCAGUGUUGCCCAGCUCAGGGUGUCU | 1.19 |
| GUAGGGAAGGAGGGACUGCUCUGCAGGAAGUGGUAUCUGUUCUUUAGACUGCUCUCCUUAGGGAGGAGCCAAGAGGGAUUUCCAUGCACACUGCCCAUGGUGGGUUUAAG | 0.468 |
| AGGCUAGUUGGUCCUCUUUGAGGAAGCAUAUAGUACAGACUUCUUAGCACUUAGGAAGCUUCUCCAACCUGUGCUCUAGGUCAGUAAAACUUCGUCCUCUGAAAUGCUUU | 0.535 |

Single results of other studies
| Strand | target | assay | test system | conditions | scale | endpoint | result |
| --- | --- | --- | --- | --- | --- | --- | --- |
| GGGAGUUCUACAGUCCGACGAUCCUGAAGCUUUGUGUUUGGCUGCACCUGCAUAAGCUGCUACAAACCGAAUAAAGAAUUUCACCGCCUGUAUCUAUCAUUCCGAUGCAUGGAAAAAAAUGGGCUUUGCACACAAUGGGUUUGCAACAGAGGAUUGAGCAUCA | RING finger protein unkempt homolog, zinc fingers 1-6, SBP tag (UNK, Homo sapiens, UniProt Q9C0B0, residues 30-357) | RNA Bind-n-Seq | RNA, in vitro | 100 nM, RNA with constant flanks, ends assumed | reference: input RNA pool, higher = stronger binding | bound/input enrichment | 0.246 ratio |
